Experimental data collected from several papers.
Every numbered part comes from another study and shows a few of its results, in no order.
UniProt Q9UEE5, sequence (whole entry, looked up): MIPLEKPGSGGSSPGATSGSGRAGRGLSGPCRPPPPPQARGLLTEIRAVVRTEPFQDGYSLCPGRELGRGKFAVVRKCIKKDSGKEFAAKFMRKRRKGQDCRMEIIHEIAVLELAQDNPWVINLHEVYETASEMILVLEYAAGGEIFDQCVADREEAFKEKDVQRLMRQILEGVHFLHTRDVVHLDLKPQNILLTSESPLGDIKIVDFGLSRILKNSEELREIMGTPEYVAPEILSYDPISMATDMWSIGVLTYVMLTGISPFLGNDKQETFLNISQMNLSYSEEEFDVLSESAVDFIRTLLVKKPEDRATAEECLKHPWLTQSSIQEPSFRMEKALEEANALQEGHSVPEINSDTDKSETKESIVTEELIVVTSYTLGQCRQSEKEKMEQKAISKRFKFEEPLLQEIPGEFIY
UniProt O95835, sequence (whole entry, looked up): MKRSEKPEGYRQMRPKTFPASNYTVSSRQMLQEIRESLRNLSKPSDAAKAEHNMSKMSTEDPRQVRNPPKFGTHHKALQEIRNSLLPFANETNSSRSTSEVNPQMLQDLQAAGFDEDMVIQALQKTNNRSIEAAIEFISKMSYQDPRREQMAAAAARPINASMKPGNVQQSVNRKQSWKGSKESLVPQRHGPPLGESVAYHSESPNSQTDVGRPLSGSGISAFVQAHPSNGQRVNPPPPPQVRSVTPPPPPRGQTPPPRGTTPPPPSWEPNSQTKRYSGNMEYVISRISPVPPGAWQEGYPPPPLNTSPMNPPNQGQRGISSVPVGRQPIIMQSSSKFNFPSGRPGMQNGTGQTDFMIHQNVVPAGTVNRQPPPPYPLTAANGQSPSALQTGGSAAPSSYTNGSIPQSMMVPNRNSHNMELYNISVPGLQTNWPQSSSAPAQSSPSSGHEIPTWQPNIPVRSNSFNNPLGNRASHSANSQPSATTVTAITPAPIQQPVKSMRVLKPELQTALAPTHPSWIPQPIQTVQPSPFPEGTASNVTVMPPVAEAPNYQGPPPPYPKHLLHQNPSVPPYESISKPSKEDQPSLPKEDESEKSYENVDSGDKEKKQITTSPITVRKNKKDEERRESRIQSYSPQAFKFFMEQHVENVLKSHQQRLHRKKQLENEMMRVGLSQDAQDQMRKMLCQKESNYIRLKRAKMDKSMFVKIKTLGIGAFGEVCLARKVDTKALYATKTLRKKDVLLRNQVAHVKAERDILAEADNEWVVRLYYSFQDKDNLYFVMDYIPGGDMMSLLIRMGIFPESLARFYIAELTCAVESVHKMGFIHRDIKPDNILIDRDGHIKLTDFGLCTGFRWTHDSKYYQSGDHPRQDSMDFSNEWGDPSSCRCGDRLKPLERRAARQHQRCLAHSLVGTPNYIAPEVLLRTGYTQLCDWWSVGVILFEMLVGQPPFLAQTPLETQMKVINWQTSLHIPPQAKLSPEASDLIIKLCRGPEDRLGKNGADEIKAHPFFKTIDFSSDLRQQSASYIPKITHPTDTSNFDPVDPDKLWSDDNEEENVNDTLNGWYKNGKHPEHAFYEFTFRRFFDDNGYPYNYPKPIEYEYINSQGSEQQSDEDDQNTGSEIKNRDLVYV
UniProt Q86YV6, sequence (whole entry, looked up): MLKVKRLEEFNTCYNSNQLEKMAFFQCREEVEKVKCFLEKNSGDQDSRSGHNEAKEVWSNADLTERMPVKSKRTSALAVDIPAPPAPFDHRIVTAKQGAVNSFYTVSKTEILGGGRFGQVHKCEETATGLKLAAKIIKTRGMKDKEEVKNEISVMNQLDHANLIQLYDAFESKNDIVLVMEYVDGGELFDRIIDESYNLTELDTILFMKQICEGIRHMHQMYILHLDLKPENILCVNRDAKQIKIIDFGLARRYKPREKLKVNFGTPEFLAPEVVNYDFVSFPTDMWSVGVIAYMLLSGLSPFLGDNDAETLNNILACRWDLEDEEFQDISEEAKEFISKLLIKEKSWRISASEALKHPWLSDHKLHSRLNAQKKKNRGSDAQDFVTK
UniProt Q9UM73, sequence (whole entry, unmodified, looked up): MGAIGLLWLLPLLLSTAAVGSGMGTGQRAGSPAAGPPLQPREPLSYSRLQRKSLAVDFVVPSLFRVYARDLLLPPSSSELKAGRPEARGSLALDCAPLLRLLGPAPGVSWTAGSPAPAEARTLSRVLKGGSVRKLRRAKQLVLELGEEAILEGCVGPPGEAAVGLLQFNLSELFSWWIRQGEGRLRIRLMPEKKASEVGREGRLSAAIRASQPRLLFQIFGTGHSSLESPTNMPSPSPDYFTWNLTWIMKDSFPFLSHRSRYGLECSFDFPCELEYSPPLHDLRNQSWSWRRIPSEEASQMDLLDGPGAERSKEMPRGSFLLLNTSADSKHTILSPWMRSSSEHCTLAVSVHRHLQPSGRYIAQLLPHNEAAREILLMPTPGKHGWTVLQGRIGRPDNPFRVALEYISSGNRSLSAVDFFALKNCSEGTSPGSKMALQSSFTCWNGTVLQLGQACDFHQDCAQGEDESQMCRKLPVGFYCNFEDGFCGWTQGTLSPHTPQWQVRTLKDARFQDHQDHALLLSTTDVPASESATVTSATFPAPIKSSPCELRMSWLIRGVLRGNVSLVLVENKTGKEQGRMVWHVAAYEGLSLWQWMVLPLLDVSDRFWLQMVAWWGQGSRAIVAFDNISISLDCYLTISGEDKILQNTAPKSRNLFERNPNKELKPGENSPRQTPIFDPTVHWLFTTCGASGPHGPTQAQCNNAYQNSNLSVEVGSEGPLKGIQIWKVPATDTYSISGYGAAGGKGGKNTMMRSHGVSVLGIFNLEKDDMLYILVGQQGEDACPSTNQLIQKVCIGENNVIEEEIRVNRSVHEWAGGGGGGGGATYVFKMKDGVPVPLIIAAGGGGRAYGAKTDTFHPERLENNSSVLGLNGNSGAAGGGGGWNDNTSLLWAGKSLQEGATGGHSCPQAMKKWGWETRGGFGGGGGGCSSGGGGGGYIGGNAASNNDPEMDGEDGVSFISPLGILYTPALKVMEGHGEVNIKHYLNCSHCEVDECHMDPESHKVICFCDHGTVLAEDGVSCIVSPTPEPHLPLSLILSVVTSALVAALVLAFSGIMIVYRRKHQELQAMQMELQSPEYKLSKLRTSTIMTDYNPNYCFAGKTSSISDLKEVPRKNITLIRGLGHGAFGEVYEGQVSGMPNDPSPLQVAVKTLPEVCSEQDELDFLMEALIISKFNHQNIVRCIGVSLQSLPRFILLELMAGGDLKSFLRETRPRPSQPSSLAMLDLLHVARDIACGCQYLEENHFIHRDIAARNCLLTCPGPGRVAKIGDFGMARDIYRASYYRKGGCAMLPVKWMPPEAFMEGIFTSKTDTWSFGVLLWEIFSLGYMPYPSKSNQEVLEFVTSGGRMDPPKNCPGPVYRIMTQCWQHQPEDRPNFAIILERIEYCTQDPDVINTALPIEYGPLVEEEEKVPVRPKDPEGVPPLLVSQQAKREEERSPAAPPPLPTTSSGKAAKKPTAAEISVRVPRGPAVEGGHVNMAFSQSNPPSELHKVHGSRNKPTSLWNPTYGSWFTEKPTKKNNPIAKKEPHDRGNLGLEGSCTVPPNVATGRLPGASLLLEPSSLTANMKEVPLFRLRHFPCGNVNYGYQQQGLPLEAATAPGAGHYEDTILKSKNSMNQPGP
UniProt Q13554, sequence (whole entry, looked up): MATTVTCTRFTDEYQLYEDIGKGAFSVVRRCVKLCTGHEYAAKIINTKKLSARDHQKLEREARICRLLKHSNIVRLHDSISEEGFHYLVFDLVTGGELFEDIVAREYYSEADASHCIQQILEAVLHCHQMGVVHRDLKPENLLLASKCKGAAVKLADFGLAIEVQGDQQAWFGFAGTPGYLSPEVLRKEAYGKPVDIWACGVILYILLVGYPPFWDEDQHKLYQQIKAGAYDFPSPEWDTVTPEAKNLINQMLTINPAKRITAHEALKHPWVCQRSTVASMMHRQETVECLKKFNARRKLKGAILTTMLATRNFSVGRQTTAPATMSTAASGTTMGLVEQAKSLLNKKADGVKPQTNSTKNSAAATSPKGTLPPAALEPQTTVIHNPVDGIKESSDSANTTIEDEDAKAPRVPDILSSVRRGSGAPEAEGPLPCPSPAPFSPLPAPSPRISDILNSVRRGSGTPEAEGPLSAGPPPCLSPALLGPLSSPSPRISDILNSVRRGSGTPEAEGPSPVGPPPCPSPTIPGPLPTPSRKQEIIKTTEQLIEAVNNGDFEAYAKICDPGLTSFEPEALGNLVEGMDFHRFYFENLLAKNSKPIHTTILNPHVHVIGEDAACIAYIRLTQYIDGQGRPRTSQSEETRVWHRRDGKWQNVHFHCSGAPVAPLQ

Block 1
Compound: Cc1cc(C)c(-n2ccn3nc(-c4cccnc4)cc23)cc1NC(=O)c1cc(C#N)cc(S(F)(F)(F)(F)F)c1
Read-out: cell-free assay
Technique: competition with immobilised ligand
Concentration: 0.1 µM
target | remaining binding
TAOK2 (Homo sapiens, UniProt Q9UL54) | 48.2%
NEK2 (Homo sapiens, UniProt P51955) | 98.6%
ALK (Homo sapiens, UniProt Q9UM73, C1156Y) | 76.6%
MYLK4 (Homo sapiens, UniProt Q86YV6) | 100%
Ribosomal protein S6 kinase alpha-6, N-terminal kinase domain (RPS6KA6, Homo sapiens, UniProt Q9UK32) | 80.4%
LATS1 (Homo sapiens, UniProt O95835) | 83.9%
CSNK1G2 (Homo sapiens, UniProt P78368) | 77.6%
EGFR (Homo sapiens, UniProt P00533, del747-750/T751S) | 85.5%
FLT1 (Homo sapiens, UniProt P17948) | 91.5%
RAF1 (Homo sapiens, UniProt P04049) | 83.8%
CAMK1D (Homo sapiens, UniProt Q8IU85) | 71.6%

Block 2
Structure (SMILES): COc1ccc(-c2cnc3c(-c4ccsc4)cnn3c2)cc1
Read-out: enzyme activity
Mode: inhibitor
Concentration: 0.5 µM
Reference: control
target | remaining activity [%]
BLK (Homo sapiens, UniProt P51451) | 83.5
CAMK2B (Homo sapiens, UniProt Q13554) | 88.7
MAP4K4 (Homo sapiens, UniProt O95819) | 28.4
EPHA4 (Homo sapiens, UniProt P54764) | 87.6
STK17A (Homo sapiens, UniProt Q9UEE5) | 91.6
HIPK2 (Homo sapiens, UniProt Q9H2X6) | 91.2

Block 3
Target: Interferon regulatory factor 7, full length, phosphomimetic (IRF7, Homo sapiens, UniProt Q92985, residues 1-503, S101K/S471D/S472D/S475D/S476D/S477D/S483D/S484D/S487D)
UniProt Q92985, sequence (whole entry, unmodified, looked up): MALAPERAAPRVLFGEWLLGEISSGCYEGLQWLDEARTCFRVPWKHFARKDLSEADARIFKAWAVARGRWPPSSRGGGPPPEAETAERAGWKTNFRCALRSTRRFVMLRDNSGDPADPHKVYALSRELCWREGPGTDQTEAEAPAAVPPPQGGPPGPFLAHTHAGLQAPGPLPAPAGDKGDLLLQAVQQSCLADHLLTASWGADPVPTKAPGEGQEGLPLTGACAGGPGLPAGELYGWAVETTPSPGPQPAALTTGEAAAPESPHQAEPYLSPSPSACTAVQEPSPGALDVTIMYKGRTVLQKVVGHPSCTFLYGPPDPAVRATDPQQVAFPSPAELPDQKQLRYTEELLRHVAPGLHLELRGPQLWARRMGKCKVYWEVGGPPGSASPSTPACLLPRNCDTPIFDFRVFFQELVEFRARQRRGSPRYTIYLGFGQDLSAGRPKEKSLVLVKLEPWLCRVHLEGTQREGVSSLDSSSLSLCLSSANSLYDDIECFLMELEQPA
Technique: protein-binding microarray
Form: double-stranded DNA, one strand shown
Sample: in vitro
Concentration: 250 nM
Setting: 60-bp whole probe
With: salmon DNA 0.4 mg/ml
Reference: random background probes
Reading: higher = stronger binding
Shared flanks, not repeated: GCCTAGCAC … GTCTTGATTCGCTTGACGCTGCTG
Sequence | log fluorescence [z-score]
GACGGTATCGACTACCGGGACGTGCTA | 0.407
TGTGTCCTGGCTTTGACTCTGTGCTAG | -0.244
TTAGGTATCGGCTTTCGGTTAGTGCTA | 1.19
TCAGGTCTCGGTCTCGGTTAGTGCTAG | 2.58
GACGGTCTCCTTCTCCTGCCGTGCTAG | -0.0583
TTAGGTTTCGACTATCGGTTTGTGCTA | 5.56
TTAGATTTCGGGGCTGGATTAGTGCTA | -0.0671
TTAGGTTTCCTGTCCCTTTAGTGCTAG | 1.29

Further values, each from its own experiment
Compound | assay | system | conditions | how to read | quantity | value
CC(C)n1cnc(-c2ccc(F)cc2)c1-c1ncc(C(=O)Nc2ccc(N3CCN(C)CC3)cc2)[nH]1 |  | IPF patients | 30 mg once daily, week 0 to 12 |  | acute exacerbation incidence | 0%
C[C@@H]1OCC2(CCN(c3cnc(Sc4ccnc(N)c4Cl)c(N)n3)CC2)[C@@H]1N | immunoblot, item: phospho-ERK | Ba/F3 NRAS Q61R, Mus musculus | 0.1 µM | reference: DMSO | ERK phosphorylation | 119%
